Measured values gathered from unrelated publications.
Compare with care: the assays were run in different laboratories. ± marks the error that the study gave.
Chain of UniProt Q07157 (whole entry, looked up): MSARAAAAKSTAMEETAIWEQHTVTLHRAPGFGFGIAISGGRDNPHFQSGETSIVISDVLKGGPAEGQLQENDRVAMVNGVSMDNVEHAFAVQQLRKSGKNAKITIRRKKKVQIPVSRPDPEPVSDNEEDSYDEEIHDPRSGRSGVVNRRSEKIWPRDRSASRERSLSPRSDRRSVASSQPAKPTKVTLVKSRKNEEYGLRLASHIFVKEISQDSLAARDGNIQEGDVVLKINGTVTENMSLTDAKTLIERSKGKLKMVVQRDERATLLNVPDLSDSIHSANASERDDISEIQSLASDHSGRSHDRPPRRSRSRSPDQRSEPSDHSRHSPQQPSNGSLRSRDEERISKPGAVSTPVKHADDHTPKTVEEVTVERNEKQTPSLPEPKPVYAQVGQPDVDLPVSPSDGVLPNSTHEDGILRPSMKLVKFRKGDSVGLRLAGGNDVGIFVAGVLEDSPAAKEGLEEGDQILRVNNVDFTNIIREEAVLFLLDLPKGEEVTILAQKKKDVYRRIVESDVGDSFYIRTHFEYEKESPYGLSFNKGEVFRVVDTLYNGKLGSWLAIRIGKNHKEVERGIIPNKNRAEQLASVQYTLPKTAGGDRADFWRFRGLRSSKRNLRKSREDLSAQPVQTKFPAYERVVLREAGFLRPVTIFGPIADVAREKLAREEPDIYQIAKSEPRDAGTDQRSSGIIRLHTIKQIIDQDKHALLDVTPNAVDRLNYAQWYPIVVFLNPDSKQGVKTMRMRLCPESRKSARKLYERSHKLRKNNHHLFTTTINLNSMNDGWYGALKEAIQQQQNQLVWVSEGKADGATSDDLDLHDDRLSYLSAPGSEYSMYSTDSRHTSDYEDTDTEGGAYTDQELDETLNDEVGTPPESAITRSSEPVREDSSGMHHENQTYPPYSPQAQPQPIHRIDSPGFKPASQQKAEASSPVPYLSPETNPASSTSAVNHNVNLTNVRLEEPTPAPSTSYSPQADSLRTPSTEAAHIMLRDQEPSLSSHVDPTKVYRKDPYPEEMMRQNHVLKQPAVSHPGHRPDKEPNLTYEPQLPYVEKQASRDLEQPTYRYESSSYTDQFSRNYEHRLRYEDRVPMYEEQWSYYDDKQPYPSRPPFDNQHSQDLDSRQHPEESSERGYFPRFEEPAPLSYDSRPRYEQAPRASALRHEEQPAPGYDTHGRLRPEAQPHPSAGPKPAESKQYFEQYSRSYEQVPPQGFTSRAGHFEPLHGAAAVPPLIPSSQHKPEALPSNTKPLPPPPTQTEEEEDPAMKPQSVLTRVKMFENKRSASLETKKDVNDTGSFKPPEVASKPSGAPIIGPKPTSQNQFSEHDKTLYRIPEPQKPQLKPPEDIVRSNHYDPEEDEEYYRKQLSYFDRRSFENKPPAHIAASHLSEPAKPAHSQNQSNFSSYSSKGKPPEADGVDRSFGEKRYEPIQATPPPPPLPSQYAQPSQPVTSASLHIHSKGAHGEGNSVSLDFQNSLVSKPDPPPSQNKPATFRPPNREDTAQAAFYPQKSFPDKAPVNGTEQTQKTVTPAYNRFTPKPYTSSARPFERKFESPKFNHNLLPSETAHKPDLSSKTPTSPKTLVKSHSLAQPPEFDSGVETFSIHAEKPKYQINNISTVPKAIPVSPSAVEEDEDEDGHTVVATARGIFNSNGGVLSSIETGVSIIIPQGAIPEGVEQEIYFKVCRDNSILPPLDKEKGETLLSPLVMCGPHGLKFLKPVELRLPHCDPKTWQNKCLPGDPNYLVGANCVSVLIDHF
Chain of UniProt Q9GZV3 (whole entry, looked up): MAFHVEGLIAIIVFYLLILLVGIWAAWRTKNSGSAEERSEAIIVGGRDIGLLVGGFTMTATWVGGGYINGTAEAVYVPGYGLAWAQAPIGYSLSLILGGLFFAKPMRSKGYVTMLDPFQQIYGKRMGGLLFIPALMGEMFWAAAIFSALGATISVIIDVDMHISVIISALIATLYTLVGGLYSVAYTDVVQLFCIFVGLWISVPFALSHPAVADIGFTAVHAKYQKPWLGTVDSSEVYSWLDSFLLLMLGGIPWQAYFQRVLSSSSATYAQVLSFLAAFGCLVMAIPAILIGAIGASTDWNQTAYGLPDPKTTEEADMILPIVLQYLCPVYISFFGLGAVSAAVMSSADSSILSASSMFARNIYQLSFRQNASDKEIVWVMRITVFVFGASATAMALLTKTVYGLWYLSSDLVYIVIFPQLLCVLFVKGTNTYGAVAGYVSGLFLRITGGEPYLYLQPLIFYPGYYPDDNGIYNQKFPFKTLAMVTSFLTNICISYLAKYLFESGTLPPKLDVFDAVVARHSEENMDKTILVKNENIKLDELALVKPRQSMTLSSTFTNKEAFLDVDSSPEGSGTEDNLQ
Chain of UniProt Q9Y570 (whole entry, looked up): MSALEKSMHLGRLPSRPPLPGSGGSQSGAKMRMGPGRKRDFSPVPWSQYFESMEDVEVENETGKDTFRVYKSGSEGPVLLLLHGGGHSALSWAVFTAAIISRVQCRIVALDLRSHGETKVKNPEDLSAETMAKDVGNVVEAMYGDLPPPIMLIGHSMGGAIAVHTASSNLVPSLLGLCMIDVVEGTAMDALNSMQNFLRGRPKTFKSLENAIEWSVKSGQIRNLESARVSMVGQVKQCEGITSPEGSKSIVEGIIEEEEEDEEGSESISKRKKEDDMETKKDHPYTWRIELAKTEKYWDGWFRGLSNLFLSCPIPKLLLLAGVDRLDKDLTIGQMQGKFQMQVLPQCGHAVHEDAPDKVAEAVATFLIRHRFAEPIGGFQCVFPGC

Compound | tested on | test | test system | conditions | scale | quantity | result
CNC(=O)c1c(N(C)N=O)ncn1C | Salmonella typhimurium | mutagenicity, Ames plate incorporation | TA98 | 500 µg/plate, without S9, methanol |  | revertant colonies per plate | 24.7 ± 6
CC(C)C(=O)O[C@H]1[C@H](C)OC(=O)[C@@H]1Cc1ccccc1 | Oncorhynchus mykiss | mortality, static-renewal water exposure |  | 96 h |  | LC50 | > 1.9 µg/mL
[Cl-].[Cl-].[Pt+2].[Ru+2].c1ccc(-c2nc3cc4ccccc4cc3nc2-c2ccccn2)nc1.c1cnc2c(c1)ccc1cccnc12.c1cnc2c(c1)ccc1cccnc12 | Danio rerio |  | embryos | 75 µM, 48 h |  | survival rate | 76.7 ± 3.7%
O=[N+]([O-])c1ccc(N2CCC(NCCC(O)c3ccc(F)c4ccccc34)CC2)c(C(F)(F)F)c1 (stereo not drawn) | Salmonella typhimurium | genotoxicity, SOS/umu test | TA1535/pSK1002 | 0.063 mg/mL, 4 h, with S9, full range |  | induction factor | 0.72
C[C@H]1CN(c2n[nH]c3nc(N[C@H]4CC[C@H](NS(=O)(=O)CCC(F)(F)F)CC4)ncc23)CCO1 | Tight junction protein 1 (TJP1, Homo sapiens, UniProt Q07157) | Kinobeads competition, refers to: TJP1 |  | 0.16 µM, unit not given | baseline: vehicle | remaining binding | 1.07
Cc1cc(C(=O)NC(C)(C)COc2cccc3c2C(N)=NS(=O)(=O)N3)cc(C)n1 | Escherichia coli | Ames test, initial | WP2 uvrA | 50.0 µg/plate | baseline: solvent control | revertant ratio | 0.9
[Cl-].[Cl-].[Pt+2].[Ru+2].c1ccc(-c2nccnc2-c2ccccn2)nc1.c1cnc2c(c1)ccc1cccnc12.c1cnc2c(c1)ccc1cccnc12 | Danio rerio |  | embryos | 30 µM, 24 h |  | survival rate | 86.7 ± 1.9%
CN(CC(C)(C)C)N=O | Salmonella typhimurium | mutagenicity, Ames plate incorporation | TA98 | 5000 µg/plate, without S9, methanol |  | revertant colonies per plate | 20 ± 9
CC[C@H](C)[C@@H]1NC(=O)[C@@H]2CCCN2C(=O)[C@H](CC(C)C)NC(=O)[C@H](CC(C)C)NC(=O)CNC(=O)[C@@H](NC(=O)[C@@H](NC(=O)[C@H](CC(=O)O)NC(=O)CNC(=O)[C@@H](NC(=O)[C@H](C)NC(=O)CNC(=O)[C@H](CCCCN)NC(=O)[C@H](CC(C)C)NC(=O)[C@H](CC(C)C)NC(=O)[C@H](CCCCN)NC(=O)CNC(=O)[C@@H](NC(=O)[C@@H](N)CC(C)C)C(C)C)C(C)C)C(C)C)CSSC[C@@H](C(=O)O)NC1=O |  | RNA-seq, refers to: Gnas mRNA | mouse traumatic brain injury, frontal cortex and hippocampus | dose not given | baseline: TBI plus compound vs TBI | log2 fold change | -1.05
O=C1c2c(O)c(=O)ccn2N([C@@H]2c3ccccc3SCc3c2ccc(F)c3F)[C@@H]2COCCN12 |  |  | BALB/c mice, plasma | oral, 15 mg/kg baloxavir marboxil, 1 h |  | plasma concentration | 139 ng/mL
COc1cccc(-c2n[nH]c(SCc3ccccn3)n2)c1OC | Escherichia coli | Ames test, plate incorporation | WP2 uvrA | 0.50 mg/plate, without S9 |  | revertant colonies per plate | 31
C[C@@H]1O[C@@H](O[C@H]2C[C@@H](O)[C@]3(CO)[C@H]4[C@H](O)C[C@]5(C)[C@@H](C6=CC(=O)OC6)CC[C@]5(O)[C@@H]4CC[C@]3(O)C2)[C@H](O)[C@H](O)[C@H]1O | Oncopeltus fasciatus | HPLC-UV | adult whole body | diet, 0.59 mg/g dry diet |  | sequestered amount | 1.09 mg/g dry mass
O=[N+]([O-])c1ccc(N2CCN(CCC(O)c3ccc(F)cc3)CC2)c(C(F)(F)F)c1 (stereo not drawn) | Salmonella typhimurium | genotoxicity, SOS/umu test | TA1535/pSK1002 | 0.125 mg/mL, 4 h, without S9, lower range |  | induction factor | 0.2
COc1cc(Nc2ncc(F)c(Nc3ccc4c(n3)NC(=O)C(C)(C)O4)n2)cc(OC)c1OC | High affinity choline transporter 1 (SLC5A7, Homo sapiens, UniProt Q9GZV3) |  |  |  |  | IC50 | > 10 µM
[Cl-].[Cl-].[Pt+2].[Ru+2].c1ccc(-c2nc3ccccc3nc2-c2ccccn2)nc1.c1cnc2c(c1)ccc1cccnc12.c1cnc2c(c1)ccc1cccnc12 | Danio rerio |  | embryos | 90 µM, 96 h |  | hatching rate | 3.33 ± 2.7%
COc1ccnc(C(=O)O)c1O | Oncorhynchus mykiss | mortality, static-renewal water exposure |  | 96 h |  | LC50 | > 10 µg/mL
CO[C@H]1C[C@@H]2CC[C@@H](C)[C@@](O)(O2)C(=O)C(=O)N2CCCC[C@H]2C(=O)O[C@H]([C@H](C)C[C@@H]2CC[C@@H](OC(=O)NCCOCCOCCOCCOCCOCCOCCOCCOCCC(=O)N3CCc4cc(Cn5nc(-c6ccc7oc(N)nc7c6)c6c(N)ncnc65)ccc4C3)[C@H](OC)C2)C[C@@H](O)[C@H](C)/C=C(\C)[C@@H](O)[C@@H](OC)C(=O)[C@H](C)C[C@H](C)/C=C/C=C/C=C/1C |  |  | patients with advanced solid tumours | intravenous, 16 mg weekly, grade 3 or higher |  | maculopapular rash incidence | 0%
CC(=O)N1CCC(C(=O)N2CCN3C(=O)c4cc(-c5ccccc5)ccc4NC(=O)C3C2)CC1 (stereo not drawn) | Escherichia coli |  | WP2 uvrA | 50 µg/plate, without S9 |  | revertants per plate | 23
OC(CCN1CC=C(c2ccc(F)cc2)CC1)c1ccc(F)c2ccccc12 (stereo not drawn) | Salmonella typhimurium | SOS/umu test | TA1535/pSK1002 | 0.016 mg/mL, 4 h, without S9, lower range |  | survival | 84.2%
C[C@]1(CO)Cc2ncn(-c3ccc(C#N)c(Cl)c3)c2C(=O)O1 |  |  | human, Chinese | 60 mg single dose |  | subjects with drug-related orthostatic hypotension | 0%
C[C@@H](O)[C@@H](CO)NC(=O)[C@@H](CCCNC(=N)N)NC(=O)[C@@H]1CCCN1C(=O)[C@@H]1CSSC[C@H](NC(=O)[C@H](Cc2ccccc2)NC(=O)CN2CCN(CC(=O)O)CCN(CC(=O)O)CCN(CC(=O)O)CC2)C(=O)N[C@@H](Cc2ccc(O)cc2)C(=O)N[C@@H](Cc2ccccc2)C(=O)N[C@@H](CCC(N)=O)C(=O)N[C@@H](CC(N)=O)C(=O)N1 [gallium-68 labelled] |  |  | Wistar rat, brain | intravenous, 8 MBq, 120 min, group mean |  | tissue uptake | 0.01 %ID/g
COc1cc2c(Oc3ccc4[nH]c(C)cc4c3F)ccnc2cc1OCC1(N)CC1 |  | refers to: grade 1 or 2 gingival bleeding | paediatric high-risk refractory sarcoma | 8 mg |  | incidence of adverse event | 20%
O=NN1CCN(C2CCCC2)CC1 | Salmonella typhimurium | mutagenicity, Ames plate incorporation | TA1535 | 1500 µg/plate, 3 d, without S9, methanol |  | revertant colonies per plate | 16 ± 7
CC[C@H](C)[C@@H]1NC(=O)[C@H](CO)NC(=O)[C@H](CCSC)NC(=O)CNC(=O)[C@H](C)NC(=O)[C@H]([C@@H](C)CC)NC(=O)[C@@H](NC(=O)[C@@H](NC(=O)[C@@H](NC(=O)[C@H](C)NC(=O)[C@H](CCCCN)NC(=O)[C@H](C)NC(=O)[C@H](Cc2c[nH]c3ccccc23)NC(=O)[C@H](CC(=O)O)NC(=O)[C@@H](NC(=O)[C@@H](NC(=O)[C@@H]2CSSC[C@H](NC(=O)[C@H](Cc3ccc(O)cc3)NC(=O)[C@@H](NC(=O)CNC(=O)[C@H](CC(N)=O)NC(=O)CNC(=O)[C@H](Cc3ccc(O)cc3)NC(=O)[C@H](Cc3ccc(O)cc3)NC(=O)[C@H](CCCCN)NC(=O)CNC(=O)[C@H](CO)NC(=O)[C@H](Cc3c[nH]cn3)NC(=O)[C@@H](NC(=O)[C@@H](N)[C@@H](C)O)[C@@H](C)O)C(C)C)C(=O)N[C@@H]([C@@H](C)O)C(=O)N[C@@H](CCCCN)C(=O)N[C@@H](CC(N)=O)C(=O)N[C@@H](CCCCN)C(=O)N2)[C@@H](C)O)C(C)C)[C@@H](C)O)[C@@H](C)O)CSSC[C@@H](C(=O)O)NC(=O)[C@H](CCCCN)NC(=O)CNC(=O)[C@@H]2CCCN2C(=O)[C@H]([C@@H](C)CC)NC(=O)[C@H](C)NC(=O)CNC(=O)CNC(=O)[C@H](CC(C)C)NC(=O)[C@H](Cc2ccccc2)NC(=O)CNC(=O)CNC1=O (single isomer, unassigned) | Pediococcus damnosus |  | CECT 4797 | 30 min, 80 °C |  | MIC after heating | > 6 µg/mL
Fc1ccc(C2=CCNCC2)cc1 | Salmonella typhimurium | SOS/umu test | TA1535/pSK1002 | 0.063 mg/mL, 4 h, without S9, full range |  | survival | 94.5%
COCCN(CCOC)N=O | Salmonella typhimurium | mutagenicity, Ames plate incorporation | TA100 | 50 µg/plate, 3 d, without S9, methanol |  | revertant colonies per plate | 127 ± 17
O=C(c1ccc(Cl)cc1)N1CCN2C(=O)N(OC(=O)N3CCOc4ccccc43)C(=O)C2C1 (stereo not drawn) | Protein phosphatase methylesterase 1 (Homo sapiens, UniProt Q9Y570) | enzyme activity, inhibitor, MS-based ABPP | SW-620 conditioned medium | 10 µM, 1 h, 37 °C | baseline: compound over DMSO, lower = stronger inhibition | median ratio | 1.24

Some of these lines once more:
Compound | tested on | test | test system | conditions | scale | quantity | result
COc1ccnc(C(=O)O)c1O | Oncorhynchus mykiss | mortality, static-renewal water exposure |  | 96 h |  | LC50 | > 10 µg/mL
CO[C@H]1C[C@@H]2CC[C@@H](C)[C@@](O)(O2)C(=O)C(=O)N2CCCC[C@H]2C(=O)O[C@H]([C@H](C)C[C@@H]2CC[C@@H](OC(=O)NCCOCCOCCOCCOCCOCCOCCOCCOCCC(=O)N3CCc4cc(Cn5nc(-c6ccc7oc(N)nc7c6)c6c(N)ncnc65)ccc4C3)[C@H](OC)C2)C[C@@H](O)[C@H](C)/C=C(\C)[C@@H](O)[C@@H](OC)C(=O)[C@H](C)C[C@H](C)/C=C/C=C/C=C/1C |  |  | patients with advanced solid tumours | intravenous, 16 mg weekly, grade 3 or higher |  | maculopapular rash incidence | 0%
